Measurements from different studies.
Protocols differ between the studies behind these lines. Numbers after ± are the reported error.
Cell line: A498

SMILES	test	setting	scale	endpoint	result
Cc1ccc(C2=Nn3c(N/N=C4/C(=O)Nc5ccc(Br)cc54)nnc3SC2)cc1	cell growth or viability, SRB	10 µM		inhibition	10%
O=C([O][Ti+2][O]C(=O)c1ccc([P+]([Au-][Cl])(c2ccccc2)c2ccccc2)cc1)c1ccc([P+]([Au-][Cl])(c2ccccc2)c2ccccc2)cc1.c1cc[cH-]c1.c1cc[cH-]c1	cell viability, XTT	72 h		IC50	6.9 µM
O=C1C(=NN=c2[nH]ccs2)c2cc(Cl)ccc2N1CCn1ncc2c(=O)[nH]cnc21	cell growth or viability, SRB	72 h		IC50	5.13 µM
COc1cc(CNC(=O)C[C@H](C)CCC=C(C)C)ccc1O	SRB	10 µM, 48 h		growth percent	104%
CC(=O)[O][Pt]1([O]C(C)=O)[O]C(=O)C(=O)[O]1.NC1CCCCC1N	cell growth	72 h		IC50	22.4 ± 5.05 µM
CC(=O)OC[C@H]1O[C@@H](Sc2sc(C(=O)c3ccc(C)cc3)c(N)c2-c2nc3ccccc3s2)[C@H](OC(C)=O)[C@@H](OC(C)=O)[C@@H]1OC(C)=O	SRB	10 µM, 48 h	reference: untreated	growth	98.9%
CCCC(CCC)C(=O)[O][Pt]([Cl])([Cl])[O]C(=O)C(CCC)CCC.N.N	cell growth	72 h		IC50	2.43 ± 0.72 µM
CCC(=C(c1ccc(Cl)cc1)c1ccc(OCCCN(C)C)cc1)c1ccc(OC)cc1	cell growth or viability			GI50	5.5 µM
CCCC(CCC)C(=O)[O][Pt]([Cl])([Cl])[O]C(C)=O.N.N	cell growth	72 h		IC50	4.21 ± 0.95 µM
COc1cc(CNC(=O)C[C@H](C)CCC=C(C)C)ccc1OCc1cn(-c2cccc([N+](=O)[O-])c2)nn1	SRB	10 µM, 48 h		growth percent	91.3%
CC/C=C\C/C=C\C/C=C\C/C=C\C/C=C\C/C=C\CCC(=O)Nc1ccn(C2OC(CO)C(O)C2(F)F)c(=O)n1 (stereo not shown)	NCI60 screen			TGI	16.1 µM
COc1cc(CNC(=O)C[C@H](C)CCC=C(C)C)ccc1OCc1cn(-c2ccc(Br)cc2)nn1	SRB	10 µM, 48 h		growth percent	105%
O=C(O)c1ccc([P+]([Au-][Cl])(c2ccccc2)c2ccccc2)cc1	cell viability, XTT	24 h		IC50	36.1 µM
CC(=O)[O][Pt]([Cl])([Cl])[O]C(=O)CCCc1ccccc1.N.N	cell growth	72 h		IC50	8.42 ± 1.47 µM
O=C1CS/C(=N\N=C2/C(=O)N(CCn3ncc4c(=O)[nH]cnc43)c3ccc(Cl)cc32)N1	cell growth or viability, SRB	72 h		IC50	93.3 µM
COc1cc(CNC(=O)C[C@H](C)CCC=C(C)C)ccc1OCc1cn(-c2ccccc2F)nn1	SRB	10 µM, 48 h		growth percent	103%
NC1CCCCC1N.O=C(CCCc1ccccc1)[O][Pt]1([O]C(=O)CCCc2ccccc2)[O]C(=O)C(=O)[O]1	cell growth	72 h		IC50	9.32 ± 1.07 µM
COc1cc(CNC(=O)C[C@H](C)CCC=C(C)C)ccc1OCc1cn(-c2ccc(C#N)cc2)nn1	SRB	10 µM, 48 h		growth percent	92.3%
C=C1C(=O)OC2CC3=C[C@@H](C/C(C)=C/C(OC(=O)Cc4cccc5ccccc45)[C@H]12)OC3=O (stereo partly shown)	cell growth or viability, MTT	24 h		IC50	0.79 µM

Repeated from above:
SMILES	test	setting	scale	endpoint	result
CCCC(CCC)C(=O)[O][Pt]([Cl])([Cl])[O]C(C)=O.N.N	cell growth	72 h		IC50	4.21 ± 0.95 µM
